Results pooled from the literature.
Parts stem from different laboratories: compare values within a part only. Substitutions count along the parent as printed.

Sample 1
Target: CCNE1, cyclin fold, Cln2 fusion (human)
Method: yeast growth competition, sequencing
Medium: yeast
Setting: strong parent motif
Reference: not given
Reading: higher = stronger binding
Starting sequence: SCAPER docking peptide (human); SNARRSLNFGGST
Change	normalised enrichment score
S12P	1.52
F9C	-0.128
N2P	1.45
R4H	0.0339
G10E	1.28
S6K	4.66
G11V	1.32
R5F	0.457
N8R	0.652
A3I	0.269
N8Y	0.501
S12C	1.52
S6W	2.24
R4V	1.14
S12Y	0.998
L7T	0.483
F9N	-0.628
N2V	0.532
R4K	0.391
S1W	1.53
S1A	1.05
N8G	0.45
S1C	1.14
G11T	1.75
R5P	0.121

Sample 2
Target: Interferon regulatory factor 7, full length, phosphomimetic (IRF7, Homo sapiens, UniProt Q92985, residues 1-503, S471D/S472D/S475D/S476D/S477D/S483D/S484D/S487D)
UniProt Q92985, sequence (whole entry, unmodified, looked up): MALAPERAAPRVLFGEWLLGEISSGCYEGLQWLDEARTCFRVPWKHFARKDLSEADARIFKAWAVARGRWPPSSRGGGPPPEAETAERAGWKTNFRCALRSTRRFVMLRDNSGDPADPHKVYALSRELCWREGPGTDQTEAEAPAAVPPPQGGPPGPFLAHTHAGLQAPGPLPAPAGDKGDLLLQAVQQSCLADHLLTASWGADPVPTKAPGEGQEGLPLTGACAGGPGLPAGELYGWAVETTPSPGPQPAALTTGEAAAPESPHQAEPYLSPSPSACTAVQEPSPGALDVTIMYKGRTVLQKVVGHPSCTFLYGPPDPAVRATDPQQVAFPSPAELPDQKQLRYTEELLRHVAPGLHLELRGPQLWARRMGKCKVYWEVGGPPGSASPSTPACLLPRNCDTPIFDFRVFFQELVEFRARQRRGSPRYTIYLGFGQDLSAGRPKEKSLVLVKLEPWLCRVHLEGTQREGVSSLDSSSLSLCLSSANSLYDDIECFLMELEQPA
Method: protein-binding microarray
Molecule type: double-stranded DNA, one strand shown
Medium: in vitro
Concentration: 2200 nM top
Setting: 60-bp whole probe
Together with: salmon DNA 0.4 mg/ml
Reference: random background probes
Reading: higher = stronger binding
Constant ends, left off below: GCCTAGCAC … GTCTTGATTCGCTTGACGCTGCTG
Oligonucleotide	fitted relative affinity [z-score]
GACGGTTTCCTTTCCCAGACGTGCTAG	4.53
TCAATAATTTTTTTCTAACTGTGCTAG	0.0595
TTTCCTTTACATTCCCCATTGTGCTAG	4.96
TTAGGTATCGGACTGGCTTAGTGCTAG	0.0411
ATATGTAAGATATCCATATGGTGCTAG	0.255
GACGAACTGGGGTTTCGAGAGGTGCTA	0.58
TACTCTTGTGACTATGGACCGTGCTAG	0.633
GGAGTGGGAAGCTTCGCTCCGTGCTAG	-0.129
TTAGGTATTGGGTATCGGTTAGTGCTA	0.463
TTAGGTTTTGGGTATCGGTTAGTGCTA	1.69
GACTGTTTCGGTCTCGGGACGTGCTAG	4.86
TTAGGTTTCCTTCTCCTGTAGTGCTAG	2.71
GACGCACTGGACACTGGGGACGTGCTA	-0.479
GACGGACTGGGTATCGGCACGTGCTAG	-0.81
TGAACTAGCGGGTCTTGCAGTGTGCTA	-0.6
GACGGTTTCGACTTTCGGTACGTGCTA	9.16
GACGAACTGAGACAGGAGACGTGCTAG	-0.447
TTAGGTTTCGGTCTGGGTTAGTGCTAG	7.3
GACGGACTGCGACTGCTGACGTGCTAG	-0.601

Sample 3
Target: ABI1, truncated, D143A, DHFR fusion (Arabidopsis thaliana)
Method: DHFR PCA, deep sequencing
Medium: yeast
Setting: methotrexate growth selection, single substitutions
Together with: (+)-ABA 710 µM
Reference: wild-type fitted maximum
Reading: higher = stronger binding
Starting sequence: PYL1, truncated, DHFR fusion (Arabidopsis thaliana); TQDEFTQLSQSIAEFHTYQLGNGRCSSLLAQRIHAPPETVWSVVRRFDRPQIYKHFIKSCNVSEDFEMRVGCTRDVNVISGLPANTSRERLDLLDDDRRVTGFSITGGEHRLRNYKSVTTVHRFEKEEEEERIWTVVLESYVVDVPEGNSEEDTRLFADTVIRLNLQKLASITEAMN; partner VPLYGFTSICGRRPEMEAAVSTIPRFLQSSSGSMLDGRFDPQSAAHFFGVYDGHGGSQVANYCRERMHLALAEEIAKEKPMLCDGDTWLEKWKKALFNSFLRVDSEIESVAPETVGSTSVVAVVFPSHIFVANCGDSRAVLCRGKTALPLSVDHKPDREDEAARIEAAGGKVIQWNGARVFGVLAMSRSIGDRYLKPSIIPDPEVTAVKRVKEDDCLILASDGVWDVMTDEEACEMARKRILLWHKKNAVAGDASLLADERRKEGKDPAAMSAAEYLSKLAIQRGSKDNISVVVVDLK
Change	relative binding score
N22I	103%
S63N	101%
A35P	-4.74%
G71E	69.7%
T6F	94.4%
C25S	92%
D65I	92%
T119R	38.9%
I133F	110%
F5I	102%
L8Q	95%
Q2M	102%
C25A	100%

Sample 4
Target: RING finger protein unkempt homolog, zinc fingers 1-6, GST-SBP tag (UNK, Homo sapiens, UniProt Q9C0B0, residues 30-357)
Method: RNA Bind-n-Seq
Molecule type: RNA
Medium: in vitro
Concentration: not given
Setting: RNA with constant flanks, human and mouse sites, ends assumed
Reference: input RNA pool
Reading: higher = stronger binding
Constant ends, left off below: GGGAGUUCUACAGUCCGACGAUC … CAACAGAGGAUUGAGCAUCA
Residues (chain): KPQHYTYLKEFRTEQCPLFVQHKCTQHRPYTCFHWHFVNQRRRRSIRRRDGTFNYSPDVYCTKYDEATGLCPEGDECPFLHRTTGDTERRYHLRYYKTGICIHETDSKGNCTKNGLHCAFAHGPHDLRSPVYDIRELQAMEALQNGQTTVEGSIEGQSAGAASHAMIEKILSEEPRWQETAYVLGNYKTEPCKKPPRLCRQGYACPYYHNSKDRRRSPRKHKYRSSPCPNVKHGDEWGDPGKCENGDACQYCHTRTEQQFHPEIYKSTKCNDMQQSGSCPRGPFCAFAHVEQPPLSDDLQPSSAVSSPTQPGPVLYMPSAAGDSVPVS
Oligonucleotide	bound/input enrichment
CAUAAAAACCAAACACUUCUCUAUAAUCUUUUUGACAUUUCUCAGUCUGCACAGACCCCAAUAGCAGUUAUUGGUCUUACAUGUAGAUUGGAUAUUUUGGAACUCUUAGAAAAAAGAGUG	0.88 ratio
UCUCCAAAAUCUGAUAUCUCUCCACUCACCCCACGAGAGUCCUCUCCUUUAUAUUCACCUACUUUUUCAGAUUCUACCUCUGCAGUCAAAGAGAAAACAGCAACUUGCCACAGUUCCUCU	0.603 ratio
GCAGCAACCACUGGUGAGUUAGCUGCUAACAAGUCUGAGAUGGCCUUCAAGGCCCAGAAUGCCACUACUAAAGUGGGCCCAAAUGCCACCUACAAUUUCUCUCAGUCUCUCAAUGCCAAU	0.138 ratio
AGCAGGAAGAACGUGCUUGGCCACAUGCAGCAGGGUGGAAGCCCAACUCCCUUUGACAGGAAUUUUGCCACUAAGAUGGGUGCUAAGGCUAUGAACUGGAUGUCUGGGAAAAUCAAGGAG	0.236 ratio
ACCUGGAACAAUGAGAUCUUGCCUAACUGGGAAACCAUGUGGUGCUCUAAGAAGGUUCGAGACUUGUGGUGGCAGGGAAUCCCUCCGAGUGUAAGAGGCAAAGUUUGGAGCUUGGCCAUU	0.102 ratio
ACUCUAAAAAAGAACCGAGUGGUGCUAGCCAAACAGCUGUUGUUGAGCGAAUUGUUAGAACAUCUUCUGGAGAAGGACAUCAUCACCUUGGAAAUGAGGGAGCUCAUCCAGGCCAAAGUG	0.304 ratio
CUUGGCCAGCUCCACCACUGUCAGGUUCUCCAGUUCUGACUGGGGUUGUGGUGAUGGCGGUAGGUGGGAAGAUCCACCCUGGCUCAGGAGCCUGACUUGACACUGGUUCUUUCAGCCCUA	0.0664 ratio
AGCUCUCCGUGCAUUCACUACUUCACUGGAACCCCUGAUCCUUCCAGGUCCAUAUUCAAGCCUUUCAUCUUUGUUGAUGACGUAAAACUUGUCCCCAAAACACAGUCUCCCUGUUUUGGG	0.404 ratio

Repeated from above (sample 2):
Oligonucleotide	fitted relative affinity [z-score]
GACGCACTGGACACTGGGGACGTGCTA	-0.479
TGAACTAGCGGGTCTTGCAGTGTGCTA	-0.6
TTAGGTTTCGGTCTGGGTTAGTGCTAG	7.3
ATATGTAAGATATCCATATGGTGCTAG	0.255
TTAGGTATCGGACTGGCTTAGTGCTAG	0.0411
